Published values pooled from the literature.
Protocols differ between the studies behind these lines. ± marks the error that the study gave.
UniProt D5ANZ3, sequence (whole entry, unmodified, looked up): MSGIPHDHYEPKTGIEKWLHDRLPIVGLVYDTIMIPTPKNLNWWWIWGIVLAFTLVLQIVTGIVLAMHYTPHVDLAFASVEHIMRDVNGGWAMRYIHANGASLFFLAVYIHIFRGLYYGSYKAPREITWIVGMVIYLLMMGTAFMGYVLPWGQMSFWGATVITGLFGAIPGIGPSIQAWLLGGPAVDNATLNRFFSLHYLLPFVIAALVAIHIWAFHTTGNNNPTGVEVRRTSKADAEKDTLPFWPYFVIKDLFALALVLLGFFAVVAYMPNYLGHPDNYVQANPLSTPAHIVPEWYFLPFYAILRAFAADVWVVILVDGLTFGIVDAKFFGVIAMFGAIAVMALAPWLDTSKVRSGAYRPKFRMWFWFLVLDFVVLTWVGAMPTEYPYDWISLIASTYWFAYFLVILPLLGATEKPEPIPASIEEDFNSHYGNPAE
UniProt Q08460, sequence (whole entry, looked up): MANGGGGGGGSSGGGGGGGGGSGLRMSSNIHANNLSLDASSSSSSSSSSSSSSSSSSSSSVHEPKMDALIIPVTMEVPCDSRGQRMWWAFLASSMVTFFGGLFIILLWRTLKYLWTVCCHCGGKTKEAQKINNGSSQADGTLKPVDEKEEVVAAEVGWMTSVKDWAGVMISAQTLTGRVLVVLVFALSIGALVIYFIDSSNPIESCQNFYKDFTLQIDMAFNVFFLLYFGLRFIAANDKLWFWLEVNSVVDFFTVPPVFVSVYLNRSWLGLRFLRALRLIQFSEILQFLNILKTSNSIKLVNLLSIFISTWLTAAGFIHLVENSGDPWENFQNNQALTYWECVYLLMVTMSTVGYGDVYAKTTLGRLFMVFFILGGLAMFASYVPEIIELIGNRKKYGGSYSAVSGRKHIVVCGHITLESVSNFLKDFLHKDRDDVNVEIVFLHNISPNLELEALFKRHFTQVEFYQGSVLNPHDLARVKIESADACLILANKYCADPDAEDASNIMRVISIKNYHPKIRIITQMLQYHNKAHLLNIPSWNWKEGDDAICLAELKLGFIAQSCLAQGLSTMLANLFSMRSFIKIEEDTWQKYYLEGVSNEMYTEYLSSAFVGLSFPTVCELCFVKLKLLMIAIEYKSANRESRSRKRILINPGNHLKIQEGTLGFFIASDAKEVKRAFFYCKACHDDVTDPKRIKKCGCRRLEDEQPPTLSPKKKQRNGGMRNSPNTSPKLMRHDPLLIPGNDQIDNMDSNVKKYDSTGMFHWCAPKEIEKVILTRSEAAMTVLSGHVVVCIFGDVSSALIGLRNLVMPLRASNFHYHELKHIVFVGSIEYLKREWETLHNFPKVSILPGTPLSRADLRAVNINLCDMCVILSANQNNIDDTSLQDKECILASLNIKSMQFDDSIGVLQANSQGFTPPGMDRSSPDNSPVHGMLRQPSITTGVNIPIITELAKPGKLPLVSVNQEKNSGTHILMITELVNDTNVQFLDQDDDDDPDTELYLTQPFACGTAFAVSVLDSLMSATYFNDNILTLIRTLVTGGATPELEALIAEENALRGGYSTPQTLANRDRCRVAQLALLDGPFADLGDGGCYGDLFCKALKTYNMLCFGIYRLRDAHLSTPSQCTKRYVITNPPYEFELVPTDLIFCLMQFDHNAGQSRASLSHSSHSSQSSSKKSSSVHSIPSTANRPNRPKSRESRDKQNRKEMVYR
UniProt O88703, sequence (whole entry, unmodified, looked up): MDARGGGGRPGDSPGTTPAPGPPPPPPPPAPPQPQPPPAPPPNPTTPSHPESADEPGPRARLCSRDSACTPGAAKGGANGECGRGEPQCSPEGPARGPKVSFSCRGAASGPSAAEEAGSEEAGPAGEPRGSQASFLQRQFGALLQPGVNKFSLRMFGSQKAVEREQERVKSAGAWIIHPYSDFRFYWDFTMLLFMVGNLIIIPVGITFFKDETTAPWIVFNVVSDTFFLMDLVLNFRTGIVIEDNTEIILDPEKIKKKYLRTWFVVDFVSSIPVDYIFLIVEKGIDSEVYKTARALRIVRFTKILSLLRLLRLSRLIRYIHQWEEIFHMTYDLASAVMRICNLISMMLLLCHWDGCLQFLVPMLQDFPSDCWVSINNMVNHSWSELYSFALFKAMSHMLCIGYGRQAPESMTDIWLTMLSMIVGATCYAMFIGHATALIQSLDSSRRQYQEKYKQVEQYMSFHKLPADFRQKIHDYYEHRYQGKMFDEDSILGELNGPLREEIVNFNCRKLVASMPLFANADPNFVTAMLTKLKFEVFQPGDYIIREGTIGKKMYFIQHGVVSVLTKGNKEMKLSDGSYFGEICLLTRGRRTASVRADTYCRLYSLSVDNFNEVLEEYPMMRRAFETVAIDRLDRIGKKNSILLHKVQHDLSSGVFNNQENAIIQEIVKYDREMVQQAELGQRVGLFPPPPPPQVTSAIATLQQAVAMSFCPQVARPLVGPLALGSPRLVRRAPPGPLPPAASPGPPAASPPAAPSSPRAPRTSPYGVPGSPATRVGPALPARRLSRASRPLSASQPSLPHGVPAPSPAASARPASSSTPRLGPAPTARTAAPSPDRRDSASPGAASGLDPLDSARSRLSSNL
UniProt Q16696, sequence (whole entry, looked up): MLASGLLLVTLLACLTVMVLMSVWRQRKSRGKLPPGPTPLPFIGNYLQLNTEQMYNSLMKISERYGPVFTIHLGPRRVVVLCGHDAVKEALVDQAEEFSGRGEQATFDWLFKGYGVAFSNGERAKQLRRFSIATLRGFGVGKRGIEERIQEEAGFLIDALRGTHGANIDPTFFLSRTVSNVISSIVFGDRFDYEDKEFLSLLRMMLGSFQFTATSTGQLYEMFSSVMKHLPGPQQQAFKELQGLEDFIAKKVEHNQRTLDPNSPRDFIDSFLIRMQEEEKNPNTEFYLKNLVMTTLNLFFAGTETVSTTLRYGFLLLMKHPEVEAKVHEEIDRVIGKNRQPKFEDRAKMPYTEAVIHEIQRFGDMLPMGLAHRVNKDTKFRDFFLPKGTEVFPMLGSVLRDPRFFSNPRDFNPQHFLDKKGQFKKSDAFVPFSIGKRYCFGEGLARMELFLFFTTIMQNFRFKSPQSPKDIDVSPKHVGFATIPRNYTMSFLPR

| Substance | target or system | assay | system | conditions | measurement | value |
| --- | --- | --- | --- | --- | --- | --- |
| CSCC[C@H](NC(C)=O)C(=O)N[C@@H](C)C(=O)N[C@@H](C)C(=O)N[C@H](C(=O)N[C@@H](C)C(=O)NCC(=O)N[C@@H](CC(C)C)C(=O)N[C@@H](Cc1ccc(O)cc1)C(=O)NCC(=O)N[C@@H](CC(C)C)C(=O)NCC(=O)N[C@@H](CCCCN)C(=O)N[C@@H](CCCCN)C(=O)N[C@@H](CCCNC(=N)N)C(=O)N[C@@H](CCC(N)=O)C(=O)N[C@@H](Cc1c[nH]cn1)C(=O)N[C@@H](CCCNC(=N)N)C(=O)N[C@@H](CCCCN)C(=O)N[C@@H](CCCCN)C(=O)N[C@@H](CCC(N)=O)C(N)=O)C(C)C | Kcnma1 (Mus musculus, UniProt Q08460) | ion current, blocker, inside-out patch clamp | – | 120 mV | Kd | 0.22 µM |
| CC[N+](CC)(CC)CC(=O)Nc1c(C)cccc1C | sodium channel (rat brain), batrachotoxin-modified | open channel block, blocker, planar lipid bilayer, single channel | – | low-Kd period, 0 mV | Kd | 1950 µM |
| CC#Cc1ccc2ccc3ccccc3c2c1 | Cytochrome P450 2A13 (Homo sapiens, UniProt Q16696) | binding, absorbance | – | pH 7.4 | Kd | 1.2 µM |
| cGMP | Potassium/sodium hyperpolarization-activated cyclic nucleotide-gated channel 2, C-terminal region (Hcn2, Mus musculus, UniProt O88703, R635A) | isothermal titration calorimetry | – | R635A, single-site model | Kd | 4.61 ± 0.16 µM |
| CC1=C(/C=C/C(C)=C/C=C/C(C)=C/C=C/C=C(C)/C=C/C=C(C)/C=C/C2=C(C)C(=O)[C@@H](O)CC2(C)C)C(C)(C)C[C@H](O)C1=O | Albumin (ALB, Homo sapiens, UniProt P02768) | binding, SPR | – | – | Kd | 1.47 µM |
| CC[C@H](C)[C@H](NC(=O)[C@@H](CCCNC(=N)N)NC(=O)[C@H](CCCNC(=N)N)NC(=O)[C@@H]1CCCN1C(=O)[C@@H]1CCCN1C(=O)[C@H](CCCNC(=N)N)NC(=O)[C@@H]1CCCN1C(=O)[C@H](CCCNC(=N)N)NC(=O)[C@@H]1CCCN1C(=O)[C@H](CC(C)C)NC(=O)[C@H](Cc1ccc(O)cc1)NC(=O)[C@@H]1CCCN1C(=O)[C@@H]1CCCN1C(=O)[C@H](CCCCN)NC(=O)[C@H](CC(=O)O)NC(=O)[C@@H](N)C(C)C)C(=O)N[C@@H](Cc1ccc(O)cc1)C(=O)N[C@@H](CC(N)=O)C(=O)N[C@H](CCCNC(=N)N)C(N)=O | 70S ribosome Staphylococcus aureus DSM 6247 | binding, fluorescence polarization | – | 90 min, pH 7.6, 28 °C, together with: fluorescein-labelled peptide | Kd | 0.102 ± 0.005 µM |
| C=CC1=C(C)c2cc3[nH]c(cc4nc(cc5[nH]c(cc1n2)c(C)c5C=C)C(C)=C4CCC(=O)O)c(CCC(=O)O)c3C.[Fe+3] | Ferrichrome-binding lipoprotein FhuD (Listeria monocytogenes, UniProt Q8Y5U6) | binding, tryptophan fluorescence quenching | – | – | Kd | 0.588 ± 0.079 µM |
| [Zn+2] | Cytochrome b (petB, Rhodobacter capsulatus, UniProt D5ANZ3, E295V) | – | – | high-affinity site E295V | Kd | 0.55 ± 0.09 µM |
| melittin | – | CD titration | POPC 75% POPG 25% vesicles | pH 7.0, 25 °C | free energy of partitioning | -7.12 kcal/mol |

Repeated from above:
| Substance | target or system | assay | system | conditions | measurement | value |
| --- | --- | --- | --- | --- | --- | --- |
| C=CC1=C(C)c2cc3[nH]c(cc4nc(cc5[nH]c(cc1n2)c(C)c5C=C)C(C)=C4CCC(=O)O)c(CCC(=O)O)c3C.[Fe+3] | Ferrichrome-binding lipoprotein FhuD (Listeria monocytogenes, UniProt Q8Y5U6) | binding, tryptophan fluorescence quenching | – | – | Kd | 0.588 ± 0.079 µM |
